Measured values collected from several papers.
Compare with care: the assays were run in different laboratories. Several values in a cell are separate wells, animals, samples, runs or records. Numbers after ± are the reported error.

Molecule	organism	test	test system	conditions	how to read	quantity	result
CNCc1ccc2c(c1)N(C(=O)OCc1ccccc1)[C@H](CNC(=N)N)[C@H]2NC(=O)C(=O)Nc1ccc(Cl)c(F)c1	HIV-1 AD8 Env E64G/S375N	viral infection	–	–	–	IC50	< 75 µM and 40 µM
Cc1cc(C#N)cc(C)c1Oc1nc(NC2CCN(Cc3ccc(C(N)=O)cc3)CC2)nc2ccccc12	HIV-1 GH9	viral replication	TZM-bl, K101P/K103N/V108I	–	–	EC50	145 ± 31 nM
Cc1nc([C@@H](NC(=O)c2ccc(-c3ccc(Cl)cc3)[nH]2)[C@H]2CCCCN2)sc1CO	HIV-1	viral replication	MT-2, IIIB	–	–	IC50	1.7 ± 0.02 µM
Cc1cc(/C=C/C#N)cc(C)c1-n1cnc2cnc(Nc3ccc(C#N)cc3)nc21	HIV-1	viral replication, single-round infection	RT mutant E138K/M184V	–	–	EC50	1.8 ± 0.8 nM
O=C(NCc1ccc(F)cc1F)c1cn2c(c(O)c1=O)C(=O)N(CCCCCCO)CC2	human immunodeficiency virus 1	single-round vector infection	integrase G140S/Q148H	–	–	EC50	300 ± 9.5 nM
CNCc1ccc2c(c1)N(C(=O)OCc1c(F)c(F)c(F)c(F)c1F)[C@H](CNC(=N)N)[C@H]2NC(=O)C(=O)Nc1ccc(Cl)c(F)c1	HIV-1 AD8 Env E64G/I424T	viral infection	–	–	–	IC50	40 µM and < 75 µM
CCCCCCCCCCCCCCC[C@@H](O)[C@H](CO)NC(=O)N[C@@H](CC(C)C)C(=O)N[C@@H](CC(C)C)C(=O)N[C@@H](CCC(N)=O)C(=O)N[C@@H](CC(C)C)C(=O)N[C@H](C(=O)N[C@H](C(=O)N[C@@H](Cc1c[nH]c2ccccc12)C(=O)NCC(=O)N[C@H](C(=O)N[C@@H](CCCCN)C(=O)N[C@@H](CCC(N)=O)C(=O)N[C@@H](CC(C)C)C(=O)N[C@@H](CCC(N)=O)C(=O)N[C@@H](C)C(=O)N[C@@H](CCCNC(=N)N)C(=O)N[C@H](C(=O)N[C@@H](CC(C)C)C(=O)N[C@@H](CCCCN)C(N)=O)[C@@H](C)CC)[C@@H](C)CC)C(C)C)[C@@H](C)O	HIV-1 HXB2	viral infectivity, luciferase reporter	TZM-bl	–	–	IC50	0.116 µM
ivermectin	human adenovirus C5	reporter gene	A549	10 µM, 72 h, together with: digitoxin	baseline: DMSO control	viral replication	63.3 ± 9.55%
CC[C@H](C)[C@H](NC(=O)[C@H](CCCCN)NC(=O)[C@H](Cc1ccc(O)cc1)NC(=O)[C@H](CCC(N)=O)NC(=O)[C@H](Cc1c[nH]cn1)NC(=O)[C@@H](NC(=O)[C@H](Cc1ccccc1)NC(=O)[C@H](Cc1c[nH]cn1)NC(=O)[C@@H](NC(=O)[C@@H](NC(=O)CNC(=O)[C@H](CCCNC(=N)N)NC(=O)[C@H](Cc1c[nH]c2ccccc12)NC(=O)[C@H](CC(C)C)NC(=O)[C@H](CO)NC(=O)[C@H](CCC(=O)O)NC(=O)[C@H](CC(C)C)NC(=O)[C@H](CCC(=O)O)NC(=O)[C@H](CC(N)=O)NC(=O)[C@H](CC(C)C)NC(=O)[C@H](CC(=O)O)NC(=O)[C@H](CO)NC(=O)[C@H](CCC(=O)O)NC(=O)[C@@H](NC(=O)[C@H](CC(C)C)NC(=O)[C@H](CCC(N)=O)NC(=O)[C@H](CCC(=O)O)NC(=O)[C@H](CCC(=O)O)NC(=O)[C@H](CC(C)C)NC(=O)[C@@H]1CCCN1C(=O)[C@@H](N)Cc1ccccc1)[C@@H](C)O)[C@@H](C)O)[C@@H](C)O)C(C)C)C(=O)N[C@@H](CCSC)C(=O)N1CCC[C@H]1C(=O)N[C@@H](Cc1ccccc1)C(=O)N[C@@H](CCCNC(=N)N)C(=O)N[C@@H](CCCCN)C(=O)N[C@@H](CC(C)C)C(=O)N[C@H](C(=O)N[C@@H](Cc1ccccc1)C(=O)N[C@@H](CCCCN)C(=O)N[C@@H](CCCNC(=N)N)C(=O)N[C@@H](CCCNC(=N)N)C(=O)N[C@@H](CCCCN)C(=O)N[C@@H](CC(N)=O)C(N)=O)C(C)C	Aspergillus flavus	ATP luminescence	ATCC 9170	48 h, 37 °C	–	MIC	> 50 µM
COCCCCCCN1CCn2cc(C(=O)NCc3ccc(F)cc3F)c(=O)c(O)c2C1=O	human immunodeficiency virus 1	single-round vector infection	integrase S230N	–	–	EC50	8.8 ± 0.9 nM
COc1ccc(C2=[N+]([O-])c3ccccc3N3CCCN=C23)cc1	Bacteroides thetaiotaomicron	microbial growth	ATCC29148	–	–	MIC	1 µg/mL
COCCn1ccn2cc(C(=O)NCc3ccc(F)cc3F)c(=O)c(O)c2c1=O	human immunodeficiency virus 1	single-round vector infection	integrase G140S/Q148H	–	–	EC50	793 ± 27.1 nM
Cc1cc(/C=C/C#N)cc(C)c1Nc1nc(Nc2ccc(C#N)cc2)ncc1N	HIV-1	viral replication, single-round infection	RT mutant L100I/K103N	–	–	EC50	1.7 ± 0.4 nM
Cc1cc(C)cc(S(=O)(=O)c2c(C(=O)NC3CC4(C3)CN(Cc3n[nH]c(=O)[nH]3)C4)[nH]c3ccc(Cl)cc23)c1	HIV-1	viral replication	MT-4, Y188L mutant	–	–	EC50	560 ± 140 nM
O=C(NCc1ccc(F)cc1F)c1cn2c(c(O)c1=O)C(=O)N(CCCCO)CC2	human immunodeficiency virus 1	single-round vector infection	integrase N155H	–	–	EC50	311 ± 29.8 nM
[O-][N+]1=C(c2ccc(Cl)cc2)C2=NCCCN2c2ccccc21	Bacteroides thetaiotaomicron	microbial growth	ATCC29148	–	–	MIC	1 µg/mL
CC(C)n1ccn2cc(C(=O)NCc3ccc(F)cc3F)c(=O)c(O)c2c1=O	human immunodeficiency virus 1	single-round vector infection	integrase G140S/Q148H	–	–	EC50	32.6 ± 7.5 nM
[O-][N+]1=C(c2ccccc2)C2=NCCN2c2ccccc21	Bacteroides thetaiotaomicron	microbial growth	ATCC29148	–	–	MIC	≤ 0.06 µg/mL
COCCN1CCn2cc(C(=O)NCc3ccc(F)cc3F)c(=O)c(O)c2C1=O	human immunodeficiency virus 1	single-round vector infection	integrase G118R	–	–	EC50	15.8 ± 2.2 nM
O=[N+]([O-])c1ccc(C2=[N+]([O-])c3ccccc3N3CCCN=C23)cc1	Bacteroides thetaiotaomicron	microbial growth	ATCC29148	–	–	MIC	0.125 µg/mL
CC(C)CC(C)N1CCn2cc(C(=O)NCc3ccc(F)cc3F)c(=O)c(O)c2C1=O (stereo not shown)	human immunodeficiency virus 1	single-round vector infection	integrase G140S/Q148H	–	–	EC50	168 ± 17.1 nM
C[N+]1=C2C(c3ccc(Cl)cc3)=[N+]([O-])c3ccccc3N2CCC1	Bacteroides thetaiotaomicron	microbial growth	ATCC29148	–	–	MIC	4 µg/mL

Excerpt of the above:
Molecule	organism	test	test system	conditions	how to read	quantity	result
CCCCCCCCCCCCCCC[C@@H](O)[C@H](CO)NC(=O)N[C@@H](CC(C)C)C(=O)N[C@@H](CC(C)C)C(=O)N[C@@H](CCC(N)=O)C(=O)N[C@@H](CC(C)C)C(=O)N[C@H](C(=O)N[C@H](C(=O)N[C@@H](Cc1c[nH]c2ccccc12)C(=O)NCC(=O)N[C@H](C(=O)N[C@@H](CCCCN)C(=O)N[C@@H](CCC(N)=O)C(=O)N[C@@H](CC(C)C)C(=O)N[C@@H](CCC(N)=O)C(=O)N[C@@H](C)C(=O)N[C@@H](CCCNC(=N)N)C(=O)N[C@H](C(=O)N[C@@H](CC(C)C)C(=O)N[C@@H](CCCCN)C(N)=O)[C@@H](C)CC)[C@@H](C)CC)C(C)C)[C@@H](C)O	HIV-1 HXB2	viral infectivity, luciferase reporter	TZM-bl	–	–	IC50	0.116 µM
ivermectin	human adenovirus C5	reporter gene	A549	10 µM, 72 h, together with: digitoxin	baseline: DMSO control	viral replication	63.3 ± 9.55%
CC[C@H](C)[C@H](NC(=O)[C@H](CCCCN)NC(=O)[C@H](Cc1ccc(O)cc1)NC(=O)[C@H](CCC(N)=O)NC(=O)[C@H](Cc1c[nH]cn1)NC(=O)[C@@H](NC(=O)[C@H](Cc1ccccc1)NC(=O)[C@H](Cc1c[nH]cn1)NC(=O)[C@@H](NC(=O)[C@@H](NC(=O)CNC(=O)[C@H](CCCNC(=N)N)NC(=O)[C@H](Cc1c[nH]c2ccccc12)NC(=O)[C@H](CC(C)C)NC(=O)[C@H](CO)NC(=O)[C@H](CCC(=O)O)NC(=O)[C@H](CC(C)C)NC(=O)[C@H](CCC(=O)O)NC(=O)[C@H](CC(N)=O)NC(=O)[C@H](CC(C)C)NC(=O)[C@H](CC(=O)O)NC(=O)[C@H](CO)NC(=O)[C@H](CCC(=O)O)NC(=O)[C@@H](NC(=O)[C@H](CC(C)C)NC(=O)[C@H](CCC(N)=O)NC(=O)[C@H](CCC(=O)O)NC(=O)[C@H](CCC(=O)O)NC(=O)[C@H](CC(C)C)NC(=O)[C@@H]1CCCN1C(=O)[C@@H](N)Cc1ccccc1)[C@@H](C)O)[C@@H](C)O)[C@@H](C)O)C(C)C)C(=O)N[C@@H](CCSC)C(=O)N1CCC[C@H]1C(=O)N[C@@H](Cc1ccccc1)C(=O)N[C@@H](CCCNC(=N)N)C(=O)N[C@@H](CCCCN)C(=O)N[C@@H](CC(C)C)C(=O)N[C@H](C(=O)N[C@@H](Cc1ccccc1)C(=O)N[C@@H](CCCCN)C(=O)N[C@@H](CCCNC(=N)N)C(=O)N[C@@H](CCCNC(=N)N)C(=O)N[C@@H](CCCCN)C(=O)N[C@@H](CC(N)=O)C(N)=O)C(C)C	Aspergillus flavus	ATP luminescence	ATCC 9170	48 h, 37 °C	–	MIC	> 50 µM
